# Results of several laboratories.
# Parts stem from different laboratories: compare values within a part only. Positions count from the first letter of the parent shown.

# Block 1
# Target: RNA binding protein fox-1 homolog 2, RRM domain, GST-SBP tag (RBFOX2, Homo sapiens, UniProt O43251-10, residues 100-194)
# Method: RNA Bind-n-Seq
# Molecule type: RNA
# Medium: in vitro
# Concentration: 365 nM
# Setting: natural RNA segment, single round, ends assumed
# Reference: no-protein control
# Reading: higher = stronger binding
# Shared flanks, not repeated: GGGAGUUCUACAGUCCGACGAUC … UGGAAUUCUCGGGUGCCAA
# Target sequence (chain): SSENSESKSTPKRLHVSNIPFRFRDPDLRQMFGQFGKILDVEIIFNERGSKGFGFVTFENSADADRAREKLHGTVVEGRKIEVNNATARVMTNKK
Strand,RBNS enrichment (R)
UACCUUUUCUGGGUGAUCUUGUGGCACAUGUAGCAAUGUUUCUUUCAUUCCUGUCCCUUCCUGGCUUGAGCUCUUGGCUGUAUUCUGUGUGCCUCUACCAUGUCUGCUGU,0.456
UCUUAUAUUUUCAUGAGUUUUUAUUUUGUCUCUGAGAUUUUGUAUUCCACAUUCUAGGGUAUUCUGUAAUUUGGCUCCUUACCAAUAUUAUUAAAAUCUUAUUAAAAUCU,1.02
AUCUCUUCUUGCCAGUAAGCAGCUUUGGUGGGCAGCAGCAGCUCAUGAAUGGCAAGCUGACAGCUUCUCCUGCUGUUUCCUUCCUCUCUUGGACUGAGUGGGUACGGCCA,0.524
CCUCGUAAGCAUUGGAAGGUCAAAUUAUUUUGAAGUGAUUUUUUUAAAAAAAAGUCUUCUGUUUAUUAACAGGAAAAUUUAUUUAUUUGACAGGAUUUUGAGUAAUGUAG,0.869
CAUCUCAGACUUCCUAACACAGCCUGUGUGGAAGGCAGAACAAAGAAUGCAUGCCCAGUCAGAAAUCUGUUCUAUUCUGCUCCAGGAAAAUCGGAAACCUGUGAGUCAGA,13.1
CACUAGUGACCACUCCCUGAGAGGCCGCAAUCAGGUGGGAAUGAAAAGGCCUCCUCCAGCGGGGCAGGCUGCUCAGUGUGGGUGGCAAGUUGUAGCCCAGCUGGAGGACA,0.323
UUCUCCUAUCUCCUAAAGUGUCGGGGAAAGUUACUGGCCUCUCUCAACAGGGCUCACUCUGAGCUCCACAUCCGCCUCCUUCAAGCAAAGACUUAAAAAGACUGCCCUUG,0.17
GAUUUUUGAAAAGCCUGAAUAAAAUUGGAAAGACUGGAAAGUUAGGAGAACUGACUAGCUAAACUGCUACAGUAUGCAAUUUCUAUUACAAUUGGUAUUACAGGGGGGAA,1.16
GCUGUUCAUGUGGAUUCAUUCCAUUCAGUGGCCCCUUGGGGUUUGCAUGCCAGUGAAGCGUUACCAUAGAAGAGCCAGCCGUUUGUGUUCGCUUGGUAGGUGUAAGUAAU,7.91
AAGCCUGAGAAGUCACUUUGGAACUAAAUUGCCUCCAUUUUAUUUUGUACGAGUAAGGGUUUGAUCUACAAAAGAGCUCACAUGGACGCACUGAGAACGCCUGCCAGCUU,1.16
CCUGAAAGAUGUUUGAGGCUUGGGAUUCCAAACUUGGUUUAUUAAACAUAUAGUCACCAUCUUCCUAGAGUUGAAGACUUAUUUGUGGCGGGGUUGCACUUUUAGAGGUC,0.64
UCAGACACCCUUUGCCUGGAAGCCCACUUGUGUUGCUGCUGUGUUGUGUAUAUAGUAUUCUCGAGAUGAGCGUAUGUGUGUCUGUUUAAAAGUCACCUUGUUUCCUACAU,5.06

# Block 2
# Target: Phosphate system positive regulatory protein PHO4, full length, GST-tagged (PHO4, Saccharomyces cerevisiae, UniProt P07270, residues 1-312)
# Method: competition protein-binding microarray
# Molecule type: double-stranded DNA, one strand shown
# Medium: in vitro
# Concentration: 2 µM
# Setting: whole 60-bp probe, lowest competitor level
# Added: Cbf1 competitor, 0.05 µM
# Reading: higher = stronger binding
# Shared flanks, not repeated: … GTCTTGATTCGCTTGACGCTGCTG
# Construct (chain): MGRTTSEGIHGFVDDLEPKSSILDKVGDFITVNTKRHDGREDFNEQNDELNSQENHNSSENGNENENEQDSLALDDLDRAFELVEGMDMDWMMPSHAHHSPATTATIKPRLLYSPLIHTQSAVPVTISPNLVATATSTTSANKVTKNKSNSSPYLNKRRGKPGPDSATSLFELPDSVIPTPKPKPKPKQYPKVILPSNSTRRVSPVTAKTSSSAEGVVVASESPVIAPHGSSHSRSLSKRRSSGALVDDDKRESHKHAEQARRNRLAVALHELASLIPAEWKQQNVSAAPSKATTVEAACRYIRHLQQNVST
Strand,fluorescence intensity
CCCCTATACATGGGGTACGTGCCAGTATTTTGAGGG,9610 a.u.
CGGGGTTAAGTTTGACGCGTGGGTGGCTTGCAGCAG,11600 a.u.
TCGGTGGGTAAGCGTCACAATTTCGTCCACCAGTAC,4420 a.u.
TTTGTGGCTTAGCATCTCGTGAGGATATGGAAGACT,5430 a.u.
CGGGGTTAAGTTTGACTCGTGGGTGGCTTGCAGCAG,10300 a.u.
CGGGGTTAAGTTTGTCACGGTACTTGCTTGCAGCAG,5190 a.u.
AAAGCGGTAATTTGCCAGGTGGGTGCAGATATCTAT,5130 a.u.
GAATAGAGGTGGTGAGTCGTGCGGAACGACGAACCT,7190 a.u.
TGCGCAACAACTTGTCTGGTGGGTGTATGTCTAGAA,4720 a.u.
CTAACGAAGGTTTTTCACGTGTTTTACAAGCCAAGT,12900 a.u.
CTACGGATCGCATCGCACGTTTGTTTACAATTGATG,11600 a.u.
GATCGATCGAATTTCCCCGTGCCGAAATTGTTCTGC,8000 a.u.
GTCTTGTCTCATTGTCACAGTACTTTCCCCACTTCA,4920 a.u.
CTTTCCCGATCTTTTCACGTGTTTTTAGCACATTTG,14100 a.u.
AAATTACTAAGTTTTCACGTGGTGTACCCCGTATGA,15900 a.u.

# Block 3
# Target: CCNE1, cyclin fold, Cln2 fusion (human)
# Method: yeast growth competition, sequencing
# Medium: yeast
# Setting: weak parent motif
# Reference: not given
# Reading: higher = stronger binding
# Starting sequence: MICAL3 docking peptide (human); LQLRRQLSFSEDS
Change,normalised enrichment score
LQLVRQLSFSEDS [R4V],1.38
LQLCRQLSFSEDS [R4C],0.831
LQLRRQESFSEDS [L7E],-0.0293
LQFRRQLSFSEDS [L3F],3.65
LQLRRQLSFTEDS [S10T],0.796
LFLRRQLSFSEDS [Q2F],0.936
LQLRRQLVFSEDS [S8V],0.687
LQLRRQLSDSEDS [F9D],-0.312
LQLRRNLSFSEDS [Q6N],0.255
LPLRRQLSFSEDS [Q2P],2.57
LQLRAQLSFSEDS [R5A],0.0481
LQLRRQLIFSEDS [S8I],0.801

# Block 4
# Molecule: PhoQ, residues 284 288 289 292 302 303 AANNSF
# Method: Sort-seq
# Item: YFP reporter
# Medium: E. coli
# Setting: PhoQ-PhoP variant library
# Added: 10 µM Mg2+
# Reference: high Mg2+ state
# Reading: higher = stronger signaling
target,fold induction
"PhoP, residues 12 14 15 18 19 SFCSL (Escherichia coli, UniProt P23836)",17.7
"PhoP, residues 12 14 15 18 19 AYFRS (Escherichia coli, UniProt P23836)",19.5
"PhoP, residues 12 14 15 18 19 HHYTI (Escherichia coli, UniProt P23836)",2.37

# Excerpt of the above (block 3):
Change,normalised enrichment score
LPLRRQLSFSEDS [Q2P],2.57
LQLCRQLSFSEDS [R4C],0.831
LQLVRQLSFSEDS [R4V],1.38
LQLRRQLSFTEDS [S10T],0.796
